Results from different studies.
Compare with care: the assays were run in different laboratories. Several values in a cell are separate wells, animals, samples, runs or records. Numbers after ± are the reported error. Where no end group is shown, it is not given here. The star is where a group is joined. * marks the point of attachment.
F2: Prothrombin (F2, Bos taurus, UniProt P00735)
HLA-DRA/HLA-DRB1: HLA-DRA/HLA-DRB1 (Homo sapiens, UniProt P01903+P01911)
UniProt O88703, sequence (whole entry, unmodified, looked up): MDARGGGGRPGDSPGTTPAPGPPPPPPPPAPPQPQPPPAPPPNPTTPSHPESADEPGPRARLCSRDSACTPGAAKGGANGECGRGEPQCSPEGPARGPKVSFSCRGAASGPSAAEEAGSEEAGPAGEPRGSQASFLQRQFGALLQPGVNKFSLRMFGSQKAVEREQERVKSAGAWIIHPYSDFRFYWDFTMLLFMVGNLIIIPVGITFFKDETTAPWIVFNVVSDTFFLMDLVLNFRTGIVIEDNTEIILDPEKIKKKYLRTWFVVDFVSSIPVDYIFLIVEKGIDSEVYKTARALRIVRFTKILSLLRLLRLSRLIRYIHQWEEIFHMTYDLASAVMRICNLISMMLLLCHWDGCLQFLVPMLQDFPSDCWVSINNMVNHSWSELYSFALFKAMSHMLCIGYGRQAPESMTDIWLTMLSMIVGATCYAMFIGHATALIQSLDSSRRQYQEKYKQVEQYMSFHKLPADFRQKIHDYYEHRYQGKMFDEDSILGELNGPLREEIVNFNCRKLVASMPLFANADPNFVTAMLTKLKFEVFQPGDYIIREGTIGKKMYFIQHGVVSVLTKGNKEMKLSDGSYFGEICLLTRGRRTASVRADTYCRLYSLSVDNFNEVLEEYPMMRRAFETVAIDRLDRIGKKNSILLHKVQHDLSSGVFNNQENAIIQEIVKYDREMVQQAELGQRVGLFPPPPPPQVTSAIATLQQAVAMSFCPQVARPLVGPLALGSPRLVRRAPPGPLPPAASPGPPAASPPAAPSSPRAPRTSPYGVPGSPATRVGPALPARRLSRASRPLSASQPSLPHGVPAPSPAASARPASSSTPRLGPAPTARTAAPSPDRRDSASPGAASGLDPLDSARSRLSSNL
UniProt P14780, sequence (whole entry, looked up): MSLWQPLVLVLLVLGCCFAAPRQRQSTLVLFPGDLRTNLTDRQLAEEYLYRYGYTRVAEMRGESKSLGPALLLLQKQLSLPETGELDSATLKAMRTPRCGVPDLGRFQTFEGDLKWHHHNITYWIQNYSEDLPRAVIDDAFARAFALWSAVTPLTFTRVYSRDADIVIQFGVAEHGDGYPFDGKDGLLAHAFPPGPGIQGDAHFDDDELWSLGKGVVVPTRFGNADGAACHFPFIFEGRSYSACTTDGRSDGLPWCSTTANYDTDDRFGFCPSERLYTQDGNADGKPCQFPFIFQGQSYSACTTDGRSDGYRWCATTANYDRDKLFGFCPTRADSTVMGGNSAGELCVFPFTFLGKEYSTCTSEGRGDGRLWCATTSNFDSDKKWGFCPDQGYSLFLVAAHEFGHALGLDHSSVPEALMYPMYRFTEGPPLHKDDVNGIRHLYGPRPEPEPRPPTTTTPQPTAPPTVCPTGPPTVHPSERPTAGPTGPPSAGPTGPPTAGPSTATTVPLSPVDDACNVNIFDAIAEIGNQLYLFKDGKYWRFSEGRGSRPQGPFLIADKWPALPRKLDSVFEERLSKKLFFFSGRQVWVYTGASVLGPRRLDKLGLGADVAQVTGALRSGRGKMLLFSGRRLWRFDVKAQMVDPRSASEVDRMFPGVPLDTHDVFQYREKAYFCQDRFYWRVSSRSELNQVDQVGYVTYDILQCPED
UniProt P00374, sequence (whole entry, looked up): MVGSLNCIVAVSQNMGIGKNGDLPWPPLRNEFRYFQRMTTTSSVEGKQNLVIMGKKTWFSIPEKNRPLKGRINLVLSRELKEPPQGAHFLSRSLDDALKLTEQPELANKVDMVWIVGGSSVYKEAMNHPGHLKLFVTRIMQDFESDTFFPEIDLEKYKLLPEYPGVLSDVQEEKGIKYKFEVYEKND
UniProt Q53HV7, sequence (whole entry, looked up): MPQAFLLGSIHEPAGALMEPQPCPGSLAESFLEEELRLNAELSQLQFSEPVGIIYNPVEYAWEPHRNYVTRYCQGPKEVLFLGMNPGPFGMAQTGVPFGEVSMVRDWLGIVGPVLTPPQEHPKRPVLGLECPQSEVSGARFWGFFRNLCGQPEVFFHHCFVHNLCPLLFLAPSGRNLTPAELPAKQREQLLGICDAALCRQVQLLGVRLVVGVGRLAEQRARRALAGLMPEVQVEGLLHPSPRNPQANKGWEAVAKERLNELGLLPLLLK
UniProt Q14654, sequence (whole entry, looked up): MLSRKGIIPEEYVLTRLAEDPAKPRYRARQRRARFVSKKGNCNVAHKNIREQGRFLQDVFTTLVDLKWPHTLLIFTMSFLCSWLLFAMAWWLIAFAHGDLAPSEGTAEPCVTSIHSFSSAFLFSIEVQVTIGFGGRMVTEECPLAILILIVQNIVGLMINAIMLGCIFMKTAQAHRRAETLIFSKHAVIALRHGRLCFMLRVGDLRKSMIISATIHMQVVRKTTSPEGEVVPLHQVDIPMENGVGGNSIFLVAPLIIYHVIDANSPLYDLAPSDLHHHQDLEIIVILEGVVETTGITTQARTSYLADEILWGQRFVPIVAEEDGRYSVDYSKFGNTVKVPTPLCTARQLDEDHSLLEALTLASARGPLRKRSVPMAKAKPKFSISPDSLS
UniProt Q585F3, sequence (whole entry, looked up): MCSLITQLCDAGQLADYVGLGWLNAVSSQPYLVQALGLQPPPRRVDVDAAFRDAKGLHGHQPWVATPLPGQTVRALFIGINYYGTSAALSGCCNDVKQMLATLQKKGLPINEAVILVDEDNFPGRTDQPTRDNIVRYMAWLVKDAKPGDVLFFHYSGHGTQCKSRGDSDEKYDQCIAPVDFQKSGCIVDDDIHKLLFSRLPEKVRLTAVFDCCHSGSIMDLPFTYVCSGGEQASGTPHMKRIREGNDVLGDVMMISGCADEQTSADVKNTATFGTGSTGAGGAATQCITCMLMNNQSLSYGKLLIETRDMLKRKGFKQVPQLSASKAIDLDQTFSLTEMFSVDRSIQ
UniProt P06276, sequence (whole entry, looked up): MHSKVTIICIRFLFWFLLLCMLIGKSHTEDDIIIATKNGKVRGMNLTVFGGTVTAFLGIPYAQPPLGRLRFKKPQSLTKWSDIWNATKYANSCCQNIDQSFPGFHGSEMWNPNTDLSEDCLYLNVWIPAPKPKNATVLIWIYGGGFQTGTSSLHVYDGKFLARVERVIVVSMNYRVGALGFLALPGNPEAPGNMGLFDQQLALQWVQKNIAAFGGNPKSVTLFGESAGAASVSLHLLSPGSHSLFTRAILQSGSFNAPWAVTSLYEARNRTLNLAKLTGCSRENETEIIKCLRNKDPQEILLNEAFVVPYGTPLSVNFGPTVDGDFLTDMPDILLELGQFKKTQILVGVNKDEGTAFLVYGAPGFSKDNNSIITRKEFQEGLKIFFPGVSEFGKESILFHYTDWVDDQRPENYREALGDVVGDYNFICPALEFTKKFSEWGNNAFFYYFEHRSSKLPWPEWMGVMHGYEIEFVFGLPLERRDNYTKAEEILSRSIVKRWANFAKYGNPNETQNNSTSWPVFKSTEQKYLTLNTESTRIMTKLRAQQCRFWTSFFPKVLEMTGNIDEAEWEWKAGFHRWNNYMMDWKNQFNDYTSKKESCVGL
UniProt P25123, sequence (whole entry, looked up): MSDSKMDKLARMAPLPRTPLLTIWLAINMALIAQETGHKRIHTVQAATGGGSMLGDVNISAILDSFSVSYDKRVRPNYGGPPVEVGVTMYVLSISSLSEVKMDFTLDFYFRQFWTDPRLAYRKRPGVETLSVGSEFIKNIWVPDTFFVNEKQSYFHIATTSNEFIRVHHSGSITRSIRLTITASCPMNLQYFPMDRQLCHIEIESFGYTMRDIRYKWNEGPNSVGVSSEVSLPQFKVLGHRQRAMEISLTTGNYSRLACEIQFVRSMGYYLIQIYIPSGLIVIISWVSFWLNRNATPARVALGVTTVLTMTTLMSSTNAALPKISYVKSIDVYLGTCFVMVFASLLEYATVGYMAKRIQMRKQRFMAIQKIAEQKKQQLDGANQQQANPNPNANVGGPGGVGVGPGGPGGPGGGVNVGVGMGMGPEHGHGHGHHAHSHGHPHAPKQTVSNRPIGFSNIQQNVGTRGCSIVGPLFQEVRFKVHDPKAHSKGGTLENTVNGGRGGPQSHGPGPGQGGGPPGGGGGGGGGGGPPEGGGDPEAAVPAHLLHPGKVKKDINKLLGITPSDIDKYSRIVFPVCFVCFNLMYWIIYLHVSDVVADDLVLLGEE
UniProt Q14994, sequence (whole entry, looked up): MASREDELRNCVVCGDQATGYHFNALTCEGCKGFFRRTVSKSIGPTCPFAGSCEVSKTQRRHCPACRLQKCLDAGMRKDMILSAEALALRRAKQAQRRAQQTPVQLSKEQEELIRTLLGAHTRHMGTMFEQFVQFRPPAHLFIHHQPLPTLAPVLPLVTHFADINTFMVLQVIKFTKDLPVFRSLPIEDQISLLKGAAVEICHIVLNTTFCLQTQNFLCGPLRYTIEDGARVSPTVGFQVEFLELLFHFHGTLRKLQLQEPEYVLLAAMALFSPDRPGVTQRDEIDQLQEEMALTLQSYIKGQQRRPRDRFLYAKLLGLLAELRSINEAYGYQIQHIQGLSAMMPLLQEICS

| Molecule | target or system | test | system | conditions | how to read | quantity | result |
| --- | --- | --- | --- | --- | --- | --- | --- |
| heparin sodium |  |  | healthy Chinese adult volunteers | continuous intravenous infusion, 8 IU/kg/h, 5 days |  | subjects with drug-related AEs | 100% |
| Ac-TFELQGGGPRGVNL-NH2 (N-acetyl, C-amide) | F2 | substrate, HPLC |  | pH 7.4, 25 °C, added: thrombin 2.2 nM |  | kcat | 28.6 ± 3.7 s⁻¹ |
| phosphatidylinositol bisphosphate | ATP-sensitive inward rectifier potassium channel 11 (Homo sapiens, UniProt Q14654) | single-channel patch clamp |  | concentration not given, reactivation after rundown |  | long open time constant | 3.7 ± 1.1 ms |
| HVLVMSATRR |  |  | peptide, C57BL/6J mice, male, serum | subcutaneous osmotic pump, 3 mg/kg/day peptide basis, 8 weeks |  | total cholesterol | 72 mg/dL and 91 mg/dL |
| cGMP | Potassium/sodium hyperpolarization-activated cyclic nucleotide-gated channel 2, C-terminal region (Hcn2, Mus musculus, UniProt O88703, T592A) | binding, ITC |  |  |  | ΔH | -20.7 kcal/mol |
| ginkgolide B | Rdl (Drosophila melanogaster, UniProt P25123) | inhibition of GABA response, antagonist | Drosophila | EC50 GABA, compound at IC50 |  | onset time constant | 8.4 ± 1.7 s |
| Ac-AEDDLPTVELQGVVPRGVNL-NH2 (N-acetyl, C-amide) | F2 | substrate, HPLC hydrolysis |  | pH 7.4, 25 °C, 0.1% PEG, 100 mM NaCl |  | Km | 300 ± 54 µM |
| Ivermectin | Nuclear receptor subfamily 1 group I member 3 (Homo sapiens, UniProt Q14994) | cell-based |  | concentration not given |  | activity | inactive |
| IDLSDVELDDLGKDEL | HLA-DRA/HLA-DRB1 | binding, inhibitor, radiolabelled peptide competition | peptide | added: radiolabelled peptide |  | IC50 | 50 µM |
| hexaarginine | PorA peptide pore | peptide binding, planar bilayer single-channel recording |  | pH 7.4, -5 mV, cis side, 150 mM KCl |  | Kd | 2.85 ± 0.3 µM |
| insulin human |  | measured: CAD | mouse, EcoHIV-infected, brain | ip, dose not given, added: insulin | relative to: PBS-treated | mRNA fold change | 1.07 |
| dihydrofolic acid | Dihydrofolate reductase (DHFR, Homo sapiens, UniProt P00374) | substrate, spectrophotometric |  |  |  | Km | 5.08 µM |
| FYGQTLGQAQAHSQEQ | HLA-DRA/HLA-DRB1 | binding, inhibitor, radiolabelled peptide competition | peptide | added: radiolabelled peptide |  | IC50 | 50 µM |
| Cbz-Arg-Arg-{AMC} (Z-RR-AMC; Cbz = O=C(OCc1ccccc1)*; AMC = Cc1cc(=O)oc2cc(N*)ccc12) | Metacaspase-2 (MCA2, Trypanosoma brucei brucei, UniProt Q585F3) | kcat/KM, substrate |  |  |  | optimal CaCl2 concentration | 250 µM |
| evodiamine | Cholinesterase (BCHE, Homo sapiens, UniProt P06276) | enzyme activity |  |  |  | efficacy | -89.5 ± 11.2% |
| nonaarginine | PorA peptide pore | peptide binding, planar bilayer single-channel recording |  | pH 7.4, +30 mV, trans side, 150 mM KCl |  | Kd | 4.53 ± 0.5 µM |
| tunicamycin | SMUG1 (Homo sapiens, UniProt Q53HV7) | glycosylase activity, activator, fluorescence |  | 10 µM |  | activation | > 200% |
| tetrahydrofolate | Serine hydroxymethyltransferase, mitochondrial (SHMT2, Homo sapiens, UniProt P34897, Y105A) | enzyme activity, substrate, MTHFD2-coupled NADH fluorescence |  | Y105A mutant |  | Vmax | 44 fluorescence units/s |
| AIP-III D4A | Histidine kinase AgrC (Listeria monocytogenes, UniProt A8E0G3) | agr reporter gene, antagonist | wild type | 10 µM |  | antagonist activity | inactive |
| 5′-methylthioadenosine | DNA adenine methyltransferase CamA (Clostridioides difficile, UniProt Q183J3) | enzyme activity |  | concentration not given |  | inhibition | > 50% |
| PPAENSSAPEAEQGGAE | HLA-DRA/HLA-DRB1 | binding, radiolabeled peptide competition | peptide |  |  | percentile rank of IC50 | 92.4% |
| tunicamycin | Oxidized purine nucleoside triphosphate hydrolase (NUDT1, Homo sapiens, UniProt P36639) | activator |  | 200 µM, screen |  | activity | > 200% |
| DPDPE |  | RP-HPLC | HALO RP-amide column | 25 µM, acetic acid/methanol, 25 min gradient |  | retention time | 15.4 min |
| PAALVAC(Mca) (Mca-labelled; Mca = COc1ccc2c(CC(=O)*)cc(=O)oc2c1) | Matrix metalloproteinase-9 (MMP9, Homo sapiens, UniProt P14780) | substrate, fluorescence |  |  |  | substrate release rate constant | 0.00484 h⁻¹ |
| aspterric acid |  |  | Arabidopsis thaliana Col-0 seeds | 50 µg/mL, seed germination |  | root length | 0.01 cm |
| Ac-APPIPPPRRKR-NH2 (N-acetyl, C-amide) | Tyrosine-protein kinase Fyn, SH3 domain (FYN, Homo sapiens, UniProt P06241) | binding, C-D FTIR probe | peptide | 4 mM, pH 7.0, band C, FYN complex, peptide P-2 |  | asymmetric stretch frequency | 2254.6 ± 0.7 cm⁻¹ |
| Polymyxin B |  |  | mouse | intraperitoneal, 30 mg/kg single dose, day 4 |  | survival | 0% |
| glucagon |  | isotope dilution | human, type 1 diabetes | intravenous infusion, 0.12 ng/kg/min, 160 to 180 min |  | splanchnic extraction | 24.6 ± 3.3% |
